Results collected from several papers.
Each line is one published result; not all experiments were run side by side. Values joined by “and” are separate records of one study, mostly repeats; a detail may differ. ± marks the error that the study gave.

SMILES | test | test system | conditions | plasma concentration
CCCCCc1cc(O)c(C/C=C(\C)CCC=C(C)C)c(O)c1C(=O)O | LC-MS/MS | Scn1a+/− mice, both sexes, plasma | intraperitoneal, 30 mg/kg, after hyperthermia protocol | 43000 ± 3000 ng/mL
CN(C)C1(CNC(=O)c2ccc3c(c2)CCN3C(=O)c2ccccc2)CCOCC1 | – | male C57BL/6 mice | intraperitoneal, 50 mg/kg, 30 min | 2300 ng/mL
CCN(CC)CCCC[C@H](NC(=O)[C@H](CC(C)C)NC(=O)[C@H](C)NC(=O)[C@H](Cc1ccccc1)NC(=O)c1ccc(C(C)(C)C)cc1)C(=O)N[C@@H](CO)C(=O)OC | – | male Swiss Albino mice, plasma | intraperitoneal, 10 mg/kg, 4 h | 28.1 ng/mL
O=C1c2c(O)c(=O)ccn2N([C@@H]2c3ccccc3SCc3c2ccc(F)c3F)[C@@H]2COCCN12 | – | BALB/c mice, plasma | oral, 50 mg/kg baloxavir marboxil, 12 h | 25.2 ng/mL
CCCCCc1cc(O)c(C/C=C(\C)CCC=C(C)C)c(O)c1 | LC-MS/MS | Scn1a+/− mice, both sexes, plasma | intraperitoneal, 0.3 mg/kg, after hyperthermia protocol | 2 ng/mL
Cc1ncc2n1-c1ccc(Cl)cc1C(c1ccccc1F)=NC2O (stereo not drawn) | – | wild-type mice, plasma | 500 mg/kg, 14 days, with: midazolam 0.3 mg/kg iv | not detected
CCCc1cc(O)c(C/C=C(\C)CCC=C(C)C)c(O)c1 | LC-MS/MS | Scn1a+/− mice, plasma | intraperitoneal, 100 mg/kg, after hyperthermia protocol | 7000 ± 1000 ng/mL
[2H]C([2H])([2H])C1(C([2H])([2H])[2H])NC(=O)N(c2ccc(F)c(C(F)(F)F)c2)C1=O | – | male Swiss outbred mice, plasma | oral, 100 mg/kg, 48 h | 38800 ± 1430 ng/mL
COc1ccc2c(c1)[C@]13CCCC[C@@H]1[C@H](C2)N(C)CC3 | – | C57BL/6 mice, plasma | oral, 50 µg/g, 30 min | 848 ng/mL and 2750 ng/mL and 327 ng/mL and 707 ng/mL and 288 ng/mL

Excerpt of the above:
SMILES | test | test system | conditions | plasma concentration
[2H]C([2H])([2H])C1(C([2H])([2H])[2H])NC(=O)N(c2ccc(F)c(C(F)(F)F)c2)C1=O | – | male Swiss outbred mice, plasma | oral, 100 mg/kg, 48 h | 38800 ± 1430 ng/mL
